Measurements from different studies.
Each numbered part is a random draw from the data of one study; scales do not carry over between parts. Changes are numbered by the printed parent chain.

Block 1 — target: CCNF, cyclin fold, Cln2 fusion (human); method: yeast growth competition, sequencing; medium: yeast; setting: strong parent motif; baseline: not given; reading: higher = stronger binding
Starting sequence: PPP1R3F docking peptide (human); VAPRRVLFADEAL
Under “normalised enrichment score”, `R5A` is recorded as 1.25.
`P3A`: “normalised enrichment score” 8.48.
For `R5K`, “normalised enrichment score” read 4.57.
`V1A`: “normalised enrichment score” 7.25.
`E11A` — result for “normalised enrichment score”: 5.93.
`L7A`: “normalised enrichment score” 1.11.

Block 2 — method: universal PBM; molecule type: double-stranded DNA, one strand shown; medium: in vitro; concentration: not given; reading: higher = stronger binding
Target: Sal-like protein 4, full length isoform B (SALL4, Homo sapiens, UniProt Q9UJQ4-2, residues 1-616)
Setting: 8-mer, flanks averaged, mean of replicates
Target sequence (chain): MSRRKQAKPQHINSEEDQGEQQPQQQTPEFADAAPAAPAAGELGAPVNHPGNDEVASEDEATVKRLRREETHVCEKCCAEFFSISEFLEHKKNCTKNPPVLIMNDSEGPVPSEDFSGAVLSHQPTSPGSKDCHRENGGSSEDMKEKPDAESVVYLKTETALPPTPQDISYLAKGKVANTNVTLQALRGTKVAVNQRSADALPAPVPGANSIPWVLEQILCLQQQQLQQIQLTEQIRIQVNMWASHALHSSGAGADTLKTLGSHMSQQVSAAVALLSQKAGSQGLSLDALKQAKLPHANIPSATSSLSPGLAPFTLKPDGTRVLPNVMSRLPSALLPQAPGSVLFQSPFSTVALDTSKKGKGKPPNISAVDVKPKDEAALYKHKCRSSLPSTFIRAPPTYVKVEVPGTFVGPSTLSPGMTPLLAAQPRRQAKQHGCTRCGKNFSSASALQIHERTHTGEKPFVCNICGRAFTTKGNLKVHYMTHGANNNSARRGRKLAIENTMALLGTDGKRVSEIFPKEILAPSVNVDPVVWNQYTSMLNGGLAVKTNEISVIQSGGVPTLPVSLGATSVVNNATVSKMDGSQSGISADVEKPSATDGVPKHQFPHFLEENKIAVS
With `GCTAGGGA` the E-score was -0.177.
`ACACGCTA` gave an E-score of 0.0839.
`ACATACGC` has an E-score of 0.0325.
`CTCCGCCC` has an E-score of -0.25.
`TCGGGGAA` has an E-score of -0.103.
The E-score of `AGTAGTTG` is reported as 0.00107.
For `ATCCACAA`, the E-score was 0.186.
With `GAGCACCC` the E-score was -0.312.
The E-score of `CCACCACA` is reported as 0.0391.
With `GAGACAGC` the E-score was -0.218.
The E-score of `GTCGTCCA` is reported as -0.0975.
`ACGGTGAT` gave an E-score of -0.0649.
`CGGTGCGC` gave an E-score of -0.356.
With `ATCATTCA` the E-score was 0.253.
`ACGTCTCA` has an E-score of 0.0259.
`ATAACAAG` gave an E-score of 0.309.
For `AATAAGTG`, the E-score was 0.26.
`ACGAAAAG` gave an E-score of 0.166.
With `AGGACGAA` the E-score was -0.152.
`CAGTCAGA` gave an E-score of -0.074.

Block 3 — method: RNA Bind-n-Seq; molecule type: RNA; medium: in vitro; concentration: 365 nM; baseline: no-protein control; reading: higher = stronger binding
Target: RNA binding protein fox-1 homolog 2, RRM domain, GST-SBP tag (RBFOX2, Homo sapiens, UniProt O43251-10, residues 100-194)
Setting: natural RNA segment, single round, ends assumed
Target sequence (chain): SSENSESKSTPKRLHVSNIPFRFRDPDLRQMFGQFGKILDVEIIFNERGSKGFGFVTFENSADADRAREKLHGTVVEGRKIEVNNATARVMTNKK
`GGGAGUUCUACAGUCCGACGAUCAGUCAUGGAAAUCCCUGGAAGGUUCACACAGCUCUCAUCCAAAGCCCUGGCCUUGCUAUGAGGGAAAGAUUGAAUAAGCAGCGCACAAGGCAUUCUGGUGCACUAACUUGUGGAAUUCUCGGGUGCCAA` — result for “RBNS enrichment (R)”: 0.289.
For `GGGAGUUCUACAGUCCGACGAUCGCUAUGUAACGCGAUCCCAUUUGCCUCUUGCUCCAUUGUGUGAUAAGCUAUGGGCUUGAAGAUGUUCUUAUAUUUCAGUGACAAUGGACACCUUAGCUUCUUAUGAGGAAUGGAAUUCUCGGGUGCCAA`, “RBNS enrichment (R)” read 0.793.
`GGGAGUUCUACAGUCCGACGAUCAAUAAAAGGCCAUUUCGGACUCUGUCCUGCUUGGACUAAUUGGCCUUCUGGACCCCUCCACUCUGGCCGUACCCGAUGGUCUGAGUGGUUUUGCCACCUCCUCUCUCAGUUGGAAUUCUCGGGUGCCAA` — result for “RBNS enrichment (R)”: 0.318.
Under “RBNS enrichment (R)”, `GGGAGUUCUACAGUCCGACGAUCCAGCCCGUCUCCUGGCCUCCCAAAGGCUUCUGCCACCUCAGCCACUCUGGAGCUGGAUAGACUGAUGGCCUCACUCUCUGACUUCCGCGUUCAAAACCAUGUUCCAGCCUUGGAAUUCUCGGGUGCCAA` is recorded as 0.405.
`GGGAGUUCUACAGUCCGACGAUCUUGUGUUUUAGGUUAAGUAGUCAAUGCCCACAUCACUUCACUGUCUCAAGACUGAGCACUUCACUAAAUGGUAGAUUUUACUGUUAAAGACCCUACAAUAAGAUUGUUUUUGGAAUUCUCGGGUGCCAA`: “RBNS enrichment (R)” 0.536.
`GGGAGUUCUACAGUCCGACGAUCAGUUUUAAGAAUAUGAAAUUAAGUUCAGGGCCCCGGAAGCUUCUUGAGCGACAUAGCCAGUCCGCCUCUGGUCAUGGCAGAACUGAUGCUGGACUUUGGUAUCUGAGGCAUGGAAUUCUCGGGUGCCAA`: “RBNS enrichment (R)” 3.05.
`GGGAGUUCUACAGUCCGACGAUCCUUACAGAGCUAAGAAUCCAUAGCCAUGGCUCUGUAAGCUAAACCUGAAGAGUGAUAUUUGUACAAUAGCUUUCUUCUUUAUUUAAAUAAACAUUUGUAUUGUAGUUGGGUGGAAUUCUCGGGUGCCAA` — result for “RBNS enrichment (R)”: 0.497.
`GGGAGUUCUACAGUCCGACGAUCAUGGGGGCCCAAAGCUCAGGGCUGGGGAGCCUGGGGUCCCCACUUGAAUCUCCAGCAGGAGGGUCCUUCUCUCCCUGGCCCGUCCUCCUCCCACCCCCUCCCCCUGGGGGUGGAAUUCUCGGGUGCCAA`: “RBNS enrichment (R)” 0.421.
`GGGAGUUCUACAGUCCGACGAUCUCUUGCCACUGGUGAGAGAAGGCCCUUGUCUCCUCAGACUAGGAGGUCUCCCACAGUGACAGCUCCUGGGUCCUUGUUCAGGAAAAGCCUGUGUGUUACCACUGCCUCAUUGGAAUUCUCGGGUGCCAA` — result for “RBNS enrichment (R)”: 0.23.
`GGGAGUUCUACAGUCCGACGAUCAAGAAGGCAAGGACUGCCUGAGAGGCUGCGUUGACCCUACUGAUGUGGGUCUUGGGAUGGGCUGGAACAGGGUUCCUGCCUGAGUAGGUGGAACUGGCAACCUUGAAGGGUGGAAUUCUCGGGUGCCAA` — result for “RBNS enrichment (R)”: 0.965.
`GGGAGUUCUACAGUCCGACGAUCUUAAACACGGCCUUGGCCUAAGGCCUGGCUGGCUAGUGCUCUGAGUGACUCUAUUUUCCCUGAGCUUGCUCCCUGAGGACCCACCACAGCCUCAUCCUUUGCCUUGCUGGUGGAAUUCUCGGGUGCCAA`: “RBNS enrichment (R)” 0.442.
Under “RBNS enrichment (R)”, `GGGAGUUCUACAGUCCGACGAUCUCCCCAGAUGCUGCCAGGCAGCCCCUCCCCAAGCCUCAAAGAAGCAUUUGCUGAGGAUGGAGAGGCAGGGGAGGGAGGCGGGAGGCCGUCACUGGAGUGGCGUCUGCAGCUGGAAUUCUCGGGUGCCAA` is recorded as 0.655.

Block 4 — method: protein binding microarray; molecule type: double-stranded DNA, one strand shown; medium: in vitro; concentration: not given; baseline: not given; reading: higher = stronger binding
Target: Histone acetyltransferase KAT6A, both winged helices, GST fusion (KAT6A, Homo sapiens, UniProt Q92794, residues 1-181)
Setting: 8-mer, flanks averaged, mean of 2 arrays, mostly near background
Target sequence (chain): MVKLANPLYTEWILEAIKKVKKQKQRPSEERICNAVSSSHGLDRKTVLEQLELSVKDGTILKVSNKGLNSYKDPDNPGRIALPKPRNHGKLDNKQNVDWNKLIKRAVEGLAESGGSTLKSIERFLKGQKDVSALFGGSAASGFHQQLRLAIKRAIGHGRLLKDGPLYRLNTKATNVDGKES
`AGCTGCGA` gave an E-score of 0.00843.
For `ACTAGCCC`, the E-score was -0.0662.
The E-score of `CGCTGTTC` is reported as 0.22.
`CCTCTAAG` has an E-score of -0.0679.
`CCGACCTC` has an E-score of -0.0385.
With `AGGAGTAG` the E-score was -0.14.
`CGAAGTGC` has an E-score of 0.0842.
With `CAACACGA` the E-score was -0.0919.
The E-score of `ACATAGCG` is reported as 0.162.
For `ATTAGTCG`, the E-score was -0.0575.
`ACAACAAT` has an E-score of -0.178.
`AAAGCAGG` gave an E-score of -0.222.
`AATGAGTA` has an E-score of 0.0146.
With `GCCTTGCC` the E-score was 0.00196.
The E-score of `ATATACTC` is reported as -0.163.
`CAAATCCA` has an E-score of -0.229.
`AAAATTGT` gave an E-score of -0.178.
With `CTGCTACA` the E-score was -0.0165.
`CCGTACCG` gave an E-score of 0.349.
For `ACAACGAA`, the E-score was -0.0606.

Block 5 — method: protein-binding microarray; molecule type: double-stranded DNA, one strand shown; medium: in vitro; concentration: 0.8 µM; setting: whole 60-bp probe, no competitor; reading: higher = stronger binding
Target: Centromere-binding protein 1, full length, N-terminal tag (CBF1, Saccharomyces cerevisiae, UniProt P17106, residues 1-351)
UniProt P17106, sequence (whole entry, looked up): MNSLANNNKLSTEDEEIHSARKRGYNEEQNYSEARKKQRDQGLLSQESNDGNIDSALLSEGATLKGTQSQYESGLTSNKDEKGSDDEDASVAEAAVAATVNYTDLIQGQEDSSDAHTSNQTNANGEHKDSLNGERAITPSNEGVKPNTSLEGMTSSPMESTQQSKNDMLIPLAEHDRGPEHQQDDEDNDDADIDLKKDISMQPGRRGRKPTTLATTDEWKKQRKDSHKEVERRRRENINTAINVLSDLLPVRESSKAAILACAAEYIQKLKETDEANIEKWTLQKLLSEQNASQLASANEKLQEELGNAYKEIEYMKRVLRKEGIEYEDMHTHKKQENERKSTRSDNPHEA
`GAATGAAAATAACGGCACGTTCCATGCTTCAAATAGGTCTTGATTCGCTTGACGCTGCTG` has a fluorescence intensity of 656 a.u.
`GAAGTACCTTTCTACCACGAGCAGTGTACTTTTTAGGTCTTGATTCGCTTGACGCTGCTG` has a fluorescence intensity of 555 a.u.
`GAATTATGGGAACGTGGTACCGTTATCGCAGTATAGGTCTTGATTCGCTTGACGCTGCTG` gave a fluorescence intensity of 987 a.u.
With `TGTACGAAGCTATTTCATCAGGGTATAGTAGTTAGGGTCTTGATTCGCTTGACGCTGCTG` the fluorescence intensity was 510 a.u.
`CTATAATATCATGAACAGGTGATAGTAGAATGTTTCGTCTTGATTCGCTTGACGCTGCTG` has a fluorescence intensity of 1160 a.u.
For `CTAAGATGATATTTCAACATCATGTTTTGCTTATTCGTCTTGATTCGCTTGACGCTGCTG`, the fluorescence intensity was 538 a.u.
With `CTAACCGCTTCTGCACACGTTTCTTAGATATGCTTCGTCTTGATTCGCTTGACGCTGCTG` the fluorescence intensity was 541 a.u.
`GAAAATATGGCGATATACGTGACAGATCCCACATAGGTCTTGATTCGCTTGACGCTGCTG` gave a fluorescence intensity of 580 a.u.
With `GAAGTAAGCGTGGTCGGTGTGATTTTATTAGTTTAGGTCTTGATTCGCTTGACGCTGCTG` the fluorescence intensity was 555 a.u.
`CTATTAGTAGTATACTATCACATGTGGTGTAAATTCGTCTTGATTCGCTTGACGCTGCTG` has a fluorescence intensity of 2670 a.u.
The fluorescence intensity of `TGTACGAAGCTATATGACACGATTATAGTAGTTAGGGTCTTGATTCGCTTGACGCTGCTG` is reported as 535 a.u.
`CCTAACTACTATACGCACGTGACATAGCTTCGTACAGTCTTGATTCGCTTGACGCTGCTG` gave a fluorescence intensity of 17000 a.u.
With `GAACTGCTTTTGTGTCACGATCATCATCACTATTAGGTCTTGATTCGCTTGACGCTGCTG` the fluorescence intensity was 812 a.u.
The fluorescence intensity of `GAAACAGGTGGAAAACACGTGGTTGGTACGGGATAGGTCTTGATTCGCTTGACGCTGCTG` is reported as 4310 a.u.
With `CTAACTCAAAGATTGCATGATCACCATCAGAATTTCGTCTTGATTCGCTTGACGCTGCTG` the fluorescence intensity was 569 a.u.
`GAAAATCATTACCAAAACGTGACGATTAACATATAGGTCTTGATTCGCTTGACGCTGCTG` gave a fluorescence intensity of 1930 a.u.
With `GAATCTCAAATTTTTCACGCGATGAGGAGACAATAGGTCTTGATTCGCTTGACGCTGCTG` the fluorescence intensity was 601 a.u.
The fluorescence intensity of `CTAAGAATGGCAATGCTCGTGCTGAAGGTGAAATTCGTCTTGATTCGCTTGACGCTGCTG` is reported as 567 a.u.
The fluorescence intensity of `GAAGTGACAAGAGGTGGTGACATAAAAATAACCTAGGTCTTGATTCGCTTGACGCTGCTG` is reported as 600 a.u.

Repeated from above (block 2):
With `GCTAGGGA` the E-score was -0.177.
`ACACGCTA` gave an E-score of 0.0839.
`ACATACGC` has an E-score of 0.0325.
`CTCCGCCC` has an E-score of -0.25.
`TCGGGGAA` has an E-score of -0.103.
The E-score of `AGTAGTTG` is reported as 0.00107.
For `ATCCACAA`, the E-score was 0.186.
